Measurements pooled from the literature.
Protocols differ between the studies behind these lines. Several values in a cell are separate wells, animals, samples, runs or records. ± marks the error that the study gave.

Compound = CC(=O)NCCCC[C@@H]1NC(=O)[C@H](Cc2c[nH]c3c(C)cccc23)NC(=O)[C@H]([C@@H](C)O)NC(=O)[C@H](CC(N)=O)NC(=O)[C@@H](NC(C)=O)C(C)(C)SSC(C)(C)[C@@H](C(=O)N[C@@H](Cc2ccc(OCCN)cc2)C(=O)N[C@@H](Cc2ccc3ccccc3c2)C(=O)NC2(C(=O)N[C@@H](CCC(=O)O)C(=O)N[C@@H](CC(N)=O)C(=O)N[C@@H](Cc3cccnc3)C(=O)N(C)CC(N)=O)CCOCC2)NC1=O; test system = human; conditions = oral, 100 mg multiple dose, day 10; quantity = CL/F; value = 9740 ± 5000 L/h
Compound = CC(C)=CCC/C(C)=C/CCn1cc(CC(P(=O)(O)O)P(=O)(O)O)nn1; test system = mouse CD-1, bile; conditions = intravenous, 0.3 mg/kg, 8 h; quantity = concentration; value = 9560 ± 1430 ng/mL
Compound = CC[C@H](C)[C@H](NC(=O)[C@H](Cc1ccc(O)cc1)NC(=O)[C@@H](NC(=O)[C@H](CCCNC(=N)N)NC(=O)[C@@H](N)CC(=O)O)C(C)C)C(=O)N[C@@H](Cc1c[nH]cn1)C(=O)N1CCC[C@H]1C(=O)O; test system = Beagle dog both sexes, plasma; conditions = subcutaneous, 10 mg/kg/day, day 27, median noncompartmental; quantity = AUC; value = 749 ng·h/mL
Compound = CC(C)C[C@H](NC(=O)CNC(=O)[C@H](CCC(N)=O)NC(=O)[C@H](CC(C)C)NC(=O)[C@H](CC(C)C)NC(=O)[C@H](CCCNC(=N)N)NC(=O)[C@H](CCC(N)=O)NC(=O)[C@H](CC(C)C)NC(=O)[C@H](CCCNC(=N)N)NC(=O)[C@H](C)NC(=O)CNC(=O)[C@H](CCC(=O)O)NC(=O)[C@H](CCCNC(=N)N)NC(=O)[C@H](CC(C)C)NC(=O)[C@H](CCCNC(=N)N)NC(=O)[C@H](CO)NC(=O)[C@H](CC(C)C)NC(=O)[C@H](CCC(=O)O)NC(=O)[C@H](CO)NC(=O)[C@@H](NC(=O)[C@H](Cc1ccccc1)NC(=O)[C@@H](NC(=O)CNC(=O)[C@H](CC(=O)O)NC(=O)C(C)(C)NC(=O)[C@@H](N)Cc1c[nH]cn1)[C@@H](C)O)[C@@H](C)O)C(=O)N[C@@H](CC(C)C)C(=O)N[C@@H](CCC(N)=O)C(=O)NCC(=O)N[C@@H](CC(C)C)C(=O)N[C@H](C(=O)NCC(=O)N[C@@H](CCCCNC(=O)COCCOCCNC(=O)COCCOCCNC(=O)CC[C@H](NC(=O)CCCCCCCCCCCCCCCCC(=O)O)C(=O)O)C(N)=O)C(C)C; test system = DIO C57BL/6J mice; conditions = sc, 300 nmol/kg twice daily, 8 days; quantity = Ki67-positive pancreatic cells; value = no effect
Compound = C=Cc1c(C)c2cc3nc(c(CC(=O)[O-])c4[n-]c(cc5nc(cc1[n-]2)C(C)=C5CC)c(C)c4C(=O)[O-])C(CCC(=O)[O-])C3C.[Cu+2].[Na+].[Na+].[Na+] (stereo not shown); test system = Wistar rat, female; conditions = oral, 500 mg/kg daily, 28 days; quantity = serum AST; value = 105 ± 20.1 U/L
Compound = CCCCCCCCCCCCCCCC(=O)N[C@@H](CCC(=O)NCCOCCOCCC(=O)NCCOCCOCCC(=O)NCCCC[C@H](NC(=O)[C@H](CC(=O)O)NC(=O)[C@H](CC(C)C)NC(=O)[C@H](Cc1ccc(O)cc1)NC(=O)[C@H](CCCCN)NC(=O)[C@H](CO)NC(=O)[C@H](Cc1ccc(O)cc1)NC(=O)[C@H](CC(=O)O)NC(=O)[C@H](CO)NC(=O)[C@@H](NC(=O)[C@H](Cc1ccccc1)NC(=O)[C@@H](NC(=O)CNC(=O)[C@H](CCC(N)=O)NC(=O)[C@@H](CO)NC(=O)[C@@H](N)Cc1c[nH]cn1)[C@@H](C)O)[C@@H](C)O)C(=O)N[C@@H](CCCNC(=N)N)C(=O)N[C@@H](CCCNC(=N)N)C(=O)N[C@@H](C)C(=O)N[C@@H](CCC(N)=O)C(=O)N[C@@H](CC(=O)O)C(=O)N[C@@H](Cc1ccccc1)C(=O)N[C@H](C(=O)N[C@@H](CCC(N)=O)C(=O)N[C@@H](Cc1c[nH]c2ccccc12)C(=O)N[C@@H](CC(C)C)C(=O)N[C@@H](CC(C)C)C(=O)N[C@@H](CC(N)=O)C(=O)N[C@H](C(=O)NCC(=O)NCC(=O)N1CCC[C@H]1C(=O)N[C@@H](CO)C(=O)N[C@@H](CO)C(=O)NCC(=O)N[C@@H](C)C(=O)N1CCC[C@H]1C(=O)N1CCC[C@H]1C(=O)N1CCC[C@H]1C(=O)N[C@@H](CO)C(N)=O)[C@@H](C)O)C(C)C)C(=O)O; test system = rhesus monkey, female; conditions = subcutaneous, 60 µg/kg, day 1, median; quantity = Tmax; value = 2 h
Compound = CCCCCCCCCCCC(=O)C(C)C(=O)N1CCC[C@H]1C(=O)NC(C)(C)C(=O)NC(C)(C)C(=O)NC(C)(C)C(=O)N[C@](C)(CC)C(=O)NCCC(=O)N[C@@H](C)C(=O)N[C@](C)(CC)C(=O)N[C@@H](C)C(=O)N[C@@H](CC(C)C)C(=O)N[C@](C)(CC)C(=O)NCCC(=O)N[C@@H](C)C(=O)N[C@](C)(CC)C(=O)NCCC(=O)N[C@@H](C)C(=O)NC(C)(C)C(=O)NC(C)(C)C(=O)NC(C)(C)C(=O)N[C@@H](C)C(=O)N[C@@H](CC(=O)O)C(=O)O (stereo partly shown); test = LC-MS; test system = buffer with human neutrophil elastase; conditions = 40 µM, 120 min, pH 7.5, 37 °C; scale = relative to: 0 h; quantity = remaining intact peptide; value = 66.3% and 64.7%
Compound = O=C1NC2(CC2)COc2ncc(F)cc2[C@H]2COCCN2c2ccn3ncc1c3n2; test system = Sprague-Dawley rat, male, serum; conditions = oral, 20 mg/kg/day, end of recovery, 4-week subacute toxicity; quantity = serum urea; value = 4.2 ± 0.71 mmol/L
Compound = COc1cnc2cccc(N3CCc4c(cc(Cn5ccnc5)cc4-c4cn(C)nc4C(F)(F)F)C3=O)c2c1; test system = BALB/c nude mice, MV4-11 xenograft; conditions = intraperitoneal, 50 mg/kg, day 17; quantity = body weight; value = 20.5 g and 21.2 g and 22.3 g and 23.8 g and 23.6 g
Compound = CC[C@H](C)[C@H](NC(=O)[C@H](CCCCN)NC(=O)CNC(=O)[C@H](CC(C)C)NC(=O)[C@H](Cc1ccccc1)NC(=O)[C@H](CCCCN)NC(=O)[C@H](CO)NC(=O)[C@H](Cc1ccccc1)NC(=O)[C@H](Cc1c[nH]c2ccccc12)NC(=O)[C@H](CCC(N)=O)NC(=O)[C@@H](NC(=O)[C@H](Cc1ccccc1)NC(=O)CCCCCNC(=O)CN1CCN(CC(=O)O)CCN(CC(=O)O)CCN(CC(=O)O)CC1)C(C)C)C(=O)N[C@@H](CCC(=O)O)C(=O)N1CCC[C@H]1C(=O)N[C@@H](CC(=O)O)C(=O)N[C@H](C(=O)N[C@@H](CO)C(=O)N[C@@H](CCC(N)=O)C(=O)N[C@H](C(=O)N[C@@H](CCC(N)=O)C(=O)N[C@@H](CC(=O)O)C(=O)N1CCC[C@H]1C(=O)N[C@@H](CC(N)=O)C(=O)N[C@@H](CC(=O)O)C(=O)N[C@@H](CCC(N)=O)C(=O)N[C@@H](Cc1ccc(O)cc1)C(=O)N[C@@H](CCC(=O)O)C(=O)N1CCC[C@H]1C(=O)N[C@@H](Cc1ccccc1)C(=O)O)C(C)C)C(C)C [copper-64 labelled]; test = dynamic PET; test system = mouse, CT26 tumour, checkpoint inhibitor-treated, tumour; conditions = intravenous, 100 µCi/mouse, 2700 s; quantity = SUVmean; value = 4.66 SUV
Compound = C=C/C=C/C[C@@H](C)[C@@H](O)[C@H]1C(=O)N[C@@H](CC)C(=O)N(C)CC(=O)N(C)[C@@H](CC(C)C)C(=O)N[C@@H](C(C)C)C(=O)N(C)[C@@H](CC(C)C)C(=O)N[C@@H](C)C(=O)N[C@H](C)C(=O)N(C)[C@@H](CC(C)C)C(=O)N(C)[C@@H](CC(C)C)C(=O)N(C)[C@@H](C(C)C)C(=O)N1C; test = LC-MS/MS; test system = Wistar Kyoto rat, male, whole blood; conditions = ip, 0.5 mg/kg/day, 672 h after 28 days; quantity = trough concentration; value = 41.4 ± 9.5 ng/mL
Compound = CCOC(=O)CNC(=O)CN1CCN(CC(=O)NCC(=O)OCC)CCN(CC(=O)NCC(=O)OCC)CCN(CC(=O)NCC(=O)OCC)CC1.[177Lu+3]; test system = rat; conditions = intravenous, 0.1 mmol/kg; quantity = time to death; value = ≤ 1 min
Compound = N#[11C]c1ccc(-c2csc(NN=C3CCCC3)n2)cc1; test system = C57BL/6 mouse, male; conditions = intravenous, 3 MBq, 30 min; quantity = uptake in adrenal gland; value = 7.18 ± 2.07 %ID/g
Compound = CC[C@H](C)[C@@H](C(=O)N[C@@H](CC(C)C)C(=O)N[C@@H](CO)C(=O)N[C@@H](CO)C(=O)N[C@H](C(=O)N[C@@H](CCC(=O)O)C(=O)N[C@H](C(=O)NCC(=O)N[C@@H](CO)C(=O)N[C@@H](CC(N)=O)C(=O)N[C@H](C(=O)N1C[C@H](O)C[C@H]1C(N)=O)[C@@H](C)O)C(C)C)[C@@H](C)O)N(C)C(=O)[C@H](C)NC(=O)CN(C)C(=O)[C@H](Cc1ccccc1)NC(=O)[C@H](CO)NC(=O)[C@H](CO)NC(=O)[C@H](CCCNC(=N)N)NC(=O)[C@H](CCC(N)=O)NC(=O)[C@H](CC(C)C)NC(=O)[C@H](Cc1ccccc1)NC(=O)[C@H](Cc1c[nH]cn1)NC(=O)[C@H](C)NC(=O)[C@H](CC(C)C)NC(=O)[C@H](CCCNC(=N)N)NC(=O)[C@H](CCC(=O)O)NC(=O)[C@@H](NC(=O)[C@H](C)NC(=O)[C@@H]1CCCCn2cc(nn2)C[C@H](NC(=O)[C@H](CCCNC(=N)N)NC(=O)CC[C@H](NC(=O)CCCCCCCCCCCCCCCCCCC(=O)O)C(=O)O)C(=O)NCC(=O)N[C@@H]([C@@H](C)O)C(=O)N[C@@H](C)C(=O)N[C@@H]([C@@H](C)O)C(=O)N1)[C@@H](C)O; test = RP-HPLC; test system = water; conditions = 1.0 mg/mL, 7 days, pH 7.5, 40 °C; quantity = main peak area remaining; value = 98%
Compound = CC(C)C[C@H](NC(=O)[C@H](Cc1ccc(O)cc1)NC(=O)[C@H](Cc1c[nH]cn1)NC(=O)[C@H](CC(=O)O)NC(=O)[C@H](CC(C)C)NC(=O)[C@H](C)NC(=O)[C@H](CC(C)C)NC(=O)CNC(=O)CNC(=O)[C@@H](NC(=O)[C@@H](NC(=O)[C@H](CCCCN)NC(=O)CNC(=O)[C@@H](NC(=O)[C@H](CCCCN)NC(=O)[C@H](CCCCN)NC(=O)[C@H](C)NC(=O)[C@H](CCCCN)NC(=O)[C@H](CCCNC(=N)N)NC(=O)[C@H](Cc1ccccc1)NC(=O)[C@@H](NC(=O)[C@H](CO)NC(=O)[C@H](CCCCN)NC(=O)[C@H](Cc1c[nH]c2ccccc12)NC(=O)CN)C(C)C)C(C)C)[C@@H](C)O)C(C)C)C(N)=O; test system = zebrafish embryos 28 hpf, E3 medium; conditions = 24 h; quantity = chronic toxic concentration; value = 5 µM
Compound = CSCC[C@H](N)C(=O)N[C@@H](C)C(=O)N[C@@H](Cc1c[nH]c2ccccc12)C(=O)N[C@@H](Cc1c[nH]cn1)C(=O)N[C@@H](CC(=O)O)C(=O)N[C@@H](CC(=O)O)C(=O)N[C@@H](CCC(=O)O)C(=O)N[C@@H](CCC(=O)O)C(=O)N[C@@H](Cc1ccccc1)C(=O)N[C@@H](C)C(=O)N[C@@H](CCCNC(=N)N)C(=O)N[C@@H](CCCNC(=N)N)C(=O)N[C@@H](CCCNC(=N)N)C(=O)N[C@@H](CCCNC(=N)N)C(=O)NCCCCCC(=O)NCCCCC(NC(=O)CCCCCNC(=O)[C@H](CCCNC(=N)N)NC(=O)[C@H](CCCNC(=N)N)NC(=O)[C@H](CCCNC(=N)N)NC(=O)[C@H](CCCNC(=N)N)NC(=O)[C@H](C)NC(=O)[C@H](Cc1ccccc1)NC(=O)[C@H](CCC(=O)O)NC(=O)[C@H](CCC(=O)O)NC(=O)[C@H](CC(=O)O)NC(=O)[C@H](CC(=O)O)NC(=O)[C@H](Cc1c[nH]cn1)NC(=O)[C@H](Cc1c[nH]c2ccccc12)NC(=O)[C@H](C)NC(=O)[C@@H](N)CCSC)C(=O)NCCCCC(NC(=O)C(CCCCNC(=O)CCCCCNC(=O)[C@H](CCCNC(=N)N)NC(=O)[C@H](CCCNC(=N)N)NC(=O)[C@H](CCCNC(=N)N)NC(=O)[C@H](CCCNC(=N)N)NC(=O)[C@H](C)NC(=O)[C@H](Cc1ccccc1)NC(=O)[C@H](CCC(=O)O)NC(=O)[C@H](CCC(=O)O)NC(=O)[C@H](CC(=O)O)NC(=O)[C@H](CC(=O)O)NC(=O)[C@H](Cc1c[nH]cn1)NC(=O)[C@H](Cc1c[nH]c2ccccc12)NC(=O)[C@H](C)NC(=O)[C@@H](N)CCSC)NC(=O)CCCCCNC(=O)[C@H](CCCNC(=N)N)NC(=O)[C@H](CCCNC(=N)N)NC(=O)[C@H](CCCNC(=N)N)NC(=O)[C@H](CCCNC(=N)N)NC(=O)[C@H](C)NC(=O)[C@H](Cc1ccccc1)NC(=O)[C@H](CCC(=O)O)NC(=O)[C@H](CCC(=O)O)NC(=O)[C@H](CC(=O)O)NC(=O)[C@H](CC(=O)O)NC(=O)[C@H](Cc1c[nH]cn1)NC(=O)[C@H](Cc1c[nH]c2ccccc12)NC(=O)[C@H](C)NC(=O)[C@@H](N)CCSC)C(N)=O (stereo partly shown); test system = C57BL/6 mouse female, colon; conditions = dose not given, 6 h; scale = relative to: total; quantity = mean tissue distribution; value = 5.41%
